Assay results collected from several papers.
Parts stem from different laboratories: compare values within a part only.

Sample 1
Target: Histone acetyltransferase KAT6A, winged helix 1, GST fusion (KAT6A, Homo sapiens, UniProt Q92794, residues 1-85)
Technique: protein binding microarray
Form: double-stranded DNA, one strand shown
Sample: in vitro
Concentration: not given
Notes: 8-mer, flanks averaged, mean of 2 arrays, mostly near background
Reference: not given
Reading: higher = stronger binding
Quantity: E-score
Construct (chain): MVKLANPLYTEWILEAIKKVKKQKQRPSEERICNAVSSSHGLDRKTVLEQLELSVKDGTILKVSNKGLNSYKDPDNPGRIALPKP
CCACAGAG: -0.168
CATAACGA: -0.149
TGACGCCA: 0.0219
AGATGTAC: -0.204
AGCGGGTA: 0.263
CAGTGTCC: -0.0142
CTGGTACA: -0.0849
GGGCACCC: 0.2
ACGTCACT: -0.122
CACCACCG: 0.264
CTTCTTGA: -0.12
CTGGGCAA: -0.262
GGCTGACC: 0.112
ACCTCCAG: -0.115
ATTAGCAA: -0.13
GCGGCGGA: 0.446

Sample 2
Target: RNA binding protein fox-1 homolog 2, RRM domain, GST-SBP tag (RBFOX2, Homo sapiens, UniProt O43251-10, residues 100-194)
Technique: RNA Bind-n-Seq
Form: RNA
Sample: in vitro
Concentration: 365 nM
Notes: natural RNA segment, single round, ends assumed
Reference: no-protein control
Reading: higher = stronger binding
Quantity: RBNS enrichment (R)
All sequences stand within: GGGAGUUCUACAGUCCGACGAUC … UGGAAUUCUCGGGUGCCAA
Target sequence (chain): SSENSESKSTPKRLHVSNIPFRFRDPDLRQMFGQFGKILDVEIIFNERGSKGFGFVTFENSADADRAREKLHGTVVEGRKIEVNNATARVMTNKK
GCGGCUUCUGAAAGUGCCUUGGUGUGAGAAGGAGGAAGGGGCCGCUUGGAGAGCUGGGCUCUCGCAUGUCAUGUUUAGCCCACUGAGAAUAUACCCUCAGGUGACUCCCU: 8.49
AUCCAGCAGACAUCAAAGCAAAACUAAAAGGUAGAUAUCUGGAAUGAAUGUAUAUGUUGUAAUUGAGGCAGAUAUUUGCCUUAAUUGGAAGGAUCUAACUGCUUUACAAA: 0.64
GCAGUUCAGUACAACUGCUCUUUUCACACUCAACUCCCUAAAACUCCUUGUAACCUUCUGUAACUAUUGGAUGACGCUUUCUCCAGCUUAGCCCUAAAUAAAGCACAGUU: 0.248
GCCCCCUCAGGGAUGUGGGAAUCUCCCAGACUUGUUUCCUGUGCCCAUCAUCUCUGCCUUUGAGUGUGGGACUCCAGGCCAGCUCCUUUUCUGUGAAGCCCUUUGCCUGU: 0.968
CCCCUCGCCUUGGUGAUUUCUUGUUUGAUUUUGCCUCAUGGUCAAGAAAGGAGGGGGAAAAUCCAGCGUGCCCCAUCUCCUACCCACCCCCUCUUUGUAUUCUCUUUGUA: 0.634
GGGGGGCUAGGGCAGGAAGGGGACUGGAGGGCGGGUAGGACCUCCACAGCCCCUUCCCAAACAGCCUCUUAUCCCUUACACCCCUUUCCUCCUCUCUUCCCCCAUGGUAG: 0.43
ACUGCUGAAGGGCUUCUUCUUAUAGCAAGAACUCUGCACAGCAACUGCCUGGAUGUGUUUGAUUUUUUAAAGCGUAGACAUAUAUUUAUGAAUGUGCAUUUCUUGACUUC: 3.12
AAAAAAAAUGUUUUUAAAGGCUCUCAACCACUGUGGAGGCAGCAUAGGGUGACAGCAACCAAGGAUUAAGUAGUCAGUACACCAAGUUCUGGUCUGCUCAUGCUUCAUUG: 0.613
UCAGUGAGCCUCAUUCCCUAGAGCUGAACCUCCACUGCAGGCCCCAAAUCUGAGAUCACAUGAUCUUUACACUGCUAAUUCAUAAAGAUGCAUAAUACAGAAAGCCUGUG: 0.424
UUCCUGCGGGGCUCAGCCCCCUCCAGGAUGCAGCCCCCUCCCCCGCACCCCGGAACCGGCGUCGCUGGCGCAUCCUGGGUGGAGGCAGGCCCCGAGCUCGGGGAAGGGGU: 2.41
UUCACUCUGACACUGUCUUAUUCUGCUGCCACAAUGCAAGCAUAGUUUGUUAUUUUUGUUACUGCCUUUUUUGAGAGAUUAUGUAUCUAUAUAGCUACCUGUCUAGAUCU: 0.654
UGAUCCCUUUGUACCAAGUCAAUGGCCACUUGAAAGUUCUGUGGACUCCCUUGUGGCCUCAACCCGUUCGUCCUUCAGCCUGUCAUCCUUCAGGCACCGACGCCCAACCU: 0.311

Sample 3
Target: Sal-like protein 4, full length isoform B (SALL4, Homo sapiens, UniProt Q9UJQ4-2, residues 1-616)
Technique: universal PBM
Form: double-stranded DNA, one strand shown
Sample: in vitro
Concentration: not given
Notes: 8-mer, flanks averaged, mean of replicates
Reading: higher = stronger binding
Quantity: E-score
Construct (chain): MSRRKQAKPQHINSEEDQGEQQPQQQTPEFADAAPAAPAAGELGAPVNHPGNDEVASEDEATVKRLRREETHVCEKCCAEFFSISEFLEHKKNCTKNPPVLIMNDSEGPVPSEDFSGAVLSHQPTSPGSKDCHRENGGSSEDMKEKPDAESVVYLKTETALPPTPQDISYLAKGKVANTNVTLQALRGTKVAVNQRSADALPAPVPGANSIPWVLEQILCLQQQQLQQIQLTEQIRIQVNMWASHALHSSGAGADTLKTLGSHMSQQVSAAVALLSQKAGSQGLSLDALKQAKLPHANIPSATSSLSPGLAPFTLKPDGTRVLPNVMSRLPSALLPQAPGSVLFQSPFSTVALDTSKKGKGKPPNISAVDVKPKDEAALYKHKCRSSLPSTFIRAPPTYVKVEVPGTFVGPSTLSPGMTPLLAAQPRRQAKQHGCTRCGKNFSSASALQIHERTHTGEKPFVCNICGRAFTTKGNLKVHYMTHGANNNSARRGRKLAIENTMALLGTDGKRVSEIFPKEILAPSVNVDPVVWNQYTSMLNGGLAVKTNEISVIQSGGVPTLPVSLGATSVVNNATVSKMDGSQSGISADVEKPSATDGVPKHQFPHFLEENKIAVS
AAGTATGT: 0.27
CGGTAGCA: -0.064
CGCTGTGA: -0.164
GTTAATTA: 0.349
AATTACTA: 0.281
GTCGGAAA: 0.0412
GGTATTTA: 0.194
CTCAGCAA: 0.107
CACAAGGA: 0.0101
CATGACCA: 0.018
ATTGCTGC: -0.0648
GGCTCAAA: -0.109
ATTCCAAA: 0.151
ACCACAAG: -0.0603
ATGGCGGG: 0.0381
AGGTGGAA: 0.132

Sample 4
Target: Protein C-ets-1 (ETS1, Homo sapiens, UniProt P14921, residues 1-441, full length assumed)
Sequence of UniProt P14921 (whole entry, looked up): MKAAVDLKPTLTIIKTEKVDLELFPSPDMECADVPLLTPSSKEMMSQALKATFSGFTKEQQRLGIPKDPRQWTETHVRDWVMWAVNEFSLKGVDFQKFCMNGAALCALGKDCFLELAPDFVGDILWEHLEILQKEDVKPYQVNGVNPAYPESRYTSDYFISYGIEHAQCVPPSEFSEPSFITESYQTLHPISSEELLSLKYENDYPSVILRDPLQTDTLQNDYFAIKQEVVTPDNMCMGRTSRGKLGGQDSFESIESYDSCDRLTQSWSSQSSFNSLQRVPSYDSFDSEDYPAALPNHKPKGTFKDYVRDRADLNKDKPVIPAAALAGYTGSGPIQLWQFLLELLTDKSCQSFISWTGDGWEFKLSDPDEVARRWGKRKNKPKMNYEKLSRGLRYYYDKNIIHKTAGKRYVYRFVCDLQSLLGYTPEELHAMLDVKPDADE
Technique: protein-binding microarray
Form: double-stranded DNA, one strand shown
Sample: in vitro
Concentration: not given
Notes: k-mer, scored over probes, only values ≥0.25
Reading: higher = stronger binding
Quantity: E-score
AGGAACTA: 0.285
AGAGGAAG: 0.431
GGAAGAAC: 0.339
ACACATCC: 0.411
GACCGGAC: 0.452
CCAGGATA: 0.347
AGACCGGA: 0.46
CAGCGGAA: 0.451
ATTTCCGC: 0.478
ACAGGAAA: 0.479
CGTCTTCC: 0.384
CACCGGAC: 0.424
AGGAGGAA: 0.347
GATCTTCC: 0.296
AAACGGAT: 0.351
ATCCCCGC: 0.282
AGAGGAAA: 0.4
AGACTTCC: 0.464
GGATGCGA: 0.311
ACCGGGAC: 0.273
AGTCATCC: 0.251
CGCCCGGA: 0.381
GGAAATTA: 0.428
CCGCATCC: 0.416
TCCGAGGA: 0.256

Sample 5
Target: Ras GTPase-activating protein-binding protein 1, full length (G3BP1, Homo sapiens, UniProt Q13283)
Sequence of UniProt Q13283 (whole entry, looked up): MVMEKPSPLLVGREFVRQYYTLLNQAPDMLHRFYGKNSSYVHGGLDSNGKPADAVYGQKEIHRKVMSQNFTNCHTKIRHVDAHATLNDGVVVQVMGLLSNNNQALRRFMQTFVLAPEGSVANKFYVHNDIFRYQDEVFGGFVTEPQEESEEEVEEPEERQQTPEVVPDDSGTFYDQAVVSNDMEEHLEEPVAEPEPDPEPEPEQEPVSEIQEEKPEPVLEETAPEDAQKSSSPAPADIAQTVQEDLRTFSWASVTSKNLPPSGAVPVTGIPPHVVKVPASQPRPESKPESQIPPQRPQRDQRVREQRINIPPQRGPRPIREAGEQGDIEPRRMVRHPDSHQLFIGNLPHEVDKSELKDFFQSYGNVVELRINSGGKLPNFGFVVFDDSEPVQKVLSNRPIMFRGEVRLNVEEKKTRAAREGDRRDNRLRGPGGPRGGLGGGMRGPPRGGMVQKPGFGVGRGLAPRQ
Technique: RNA Bind-n-Seq
Form: RNA
Sample: in vitro
Concentration: 200 nM
Notes: whole 134-nt RNA, ends assumed
Together with: 150 mM LiCl
Reference: input library
Reading: higher = stronger binding
Quantity: log2 enrichment
Library: 7-deaza-guanosine replaces G
All sequences stand within: GGGAGUUCUACAGUCCGACGAUC … UGGAAUUCUCGGGUGUCAAGG
UGGCCCUGGUGUCAUGCGGGGAGGAAGAGGUGGCCUCAUGGAUCGUGGUGGUCCCGGUGGAAUGUUCAGAGGUGGCCGUGGUGGAGACAG: 0.101
AGUCCUGUGCUACACAUCGUAUGUACCGAAUCGGGAAAAGGAAAAGGGGAAAAGGGGAAAGUAUUAUGUUACGCCGUUCGGAUCUGCACU: -0.563
AGUCCUGUGCUACACAUCGUAUGUACCGAAUCGGGGUUUGGGGUUUGGGGUUUGGGGAAAGUAUUAUGUUACGCCGUUCGGAUCUGCACU: -0.55
UAACUUUAGAGGAGGAUCUGAUGGAUAUGGCAGUGGACGUGGAUUUGGGGAUGGCUAUAAUGGGUAUGGAGCAGGACCUGGAGGUGGCAA: -0.158
GCAGGAAGUAAAAACAAAUGGAAAUGCUUCGGAUAGUGGCAGGGGUGGGGGUUGCUAAGGAAAGGGUUGGAUGGGAGUGGGUAAAGAGUU: 0.172
GCAGGAAUUAAAAACAAAUGGAAAUGCUUCGGAUAGUGGCAGGGGUGGGGGUUGCUAAGGAAAGGGUGGGAUGGGAGUGGGUAAAGAGUU: 0.113
GCAGGAAGUAAAUACAAAUGGAAAUGCUUCGGAUAGUGGCAGGGGUGGGGGUUGCUAAGGAAAGGGUGGGAUGGGAGUGGGUAAAGAGUU: -0.371
CACAGACAACACGCACCCACACAGACACAGAGGGAAGGGGUUGGGAUGGGGACAGGGUGCACAGCAGGGCGGGGUACGACCCCAGCCCCU: 1.34
CCUGUGCUACACAUCGUAUGUACCGAAUCGGGGCCCCCCGGGCCCCCCGGCCCCCCGGGGAAAGUAUUAUGUUACGCCGUUCGGAUCUGC: -0.000315
UCCUGUGCUACACAUCGUAUGUACCGAAUCGGGUUUUUUUGGGUUUUUUUGGGAAAGGGAAAGUAUUAUGUUACGCCGUUCGGAUCUGCA: 0.643
GCAGGAAGUAAAAACAAAUGGAAAUGCUUCGGAUAGUGGCAGGGGUGGGGGUUGCUAUGGAAAGGGUGGGAUGGGAGUGGGUAAAGAGUU: -0.171

For quick reference, copied from above (sample 4):
CGTCTTCC: 0.384
CACCGGAC: 0.424
AGGAGGAA: 0.347
GATCTTCC: 0.296
AAACGGAT: 0.351
ATCCCCGC: 0.282
AGAGGAAA: 0.4
AGACTTCC: 0.464
GGATGCGA: 0.311
ACCGGGAC: 0.273
AGTCATCC: 0.251
CGCCCGGA: 0.381
